Experimental data from different studies.
A part holds a random share of what one study measured.

Study 1
Target: Max dimerization protein 1, bHLH-zipper, MAX partner unstated (MXD1, Homo sapiens, UniProt Q05195, residues 56-136)
Method: protein-binding microarray
Form: double-stranded DNA, one strand shown
Matrix: in vitro
Tested at: not given
Setting: k-mer, scored over probes, only values ≥0.25
Reading: higher = stronger binding
Construct (chain): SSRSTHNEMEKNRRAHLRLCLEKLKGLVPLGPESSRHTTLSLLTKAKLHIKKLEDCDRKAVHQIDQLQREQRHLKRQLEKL
Sequence	E-score
CCCCGCCC	0.357
CCGAGGAA	0.267
CAACCCAC	0.281
CACATGGC	0.457
ATGTGCTC	0.325
CCCCCCGC	0.324
CCACGCCA	0.257
TGCATGCA	0.341
AACGTGGG	0.415
CGTGGGGC	0.292
CACGCCTC	0.297
ACGCCCCC	0.259
GCAGTACC	0.265
TCGCCACA	0.259

Study 2
Target: Histone acetyltransferase KAT6A, winged helix 2, GST fusion (KAT6A, Homo sapiens, UniProt Q92794, residues 85-181)
Method: protein binding microarray
Form: double-stranded DNA, one strand shown
Matrix: in vitro
Tested at: not given
Setting: 8-mer, flanks averaged, mean of 2 arrays, mostly near background
Relative to: not given
Reading: higher = stronger binding
Target sequence (chain): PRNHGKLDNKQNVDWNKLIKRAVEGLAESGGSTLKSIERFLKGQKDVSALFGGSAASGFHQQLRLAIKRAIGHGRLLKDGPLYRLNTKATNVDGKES
Sequence	E-score
CATCCAGC	0.198
TATGCGAA	-0.0757
GCCTACCC	-0.0587
AGAGTAGG	-0.129
ACTCAGCT	-0.113
CCAGCAGA	0.0894
GCTTAGTA	-0.00469
AATCCTGG	-0.0406
CACCGGAA	0.13
CATTATGA	-0.203
ATTGGTCG	0.0935
AATTTTCT	-0.0941
AGGTAGCG	-0.0158
ATCAAATC	-0.0187
CGGATTGA	0.0725

Study 3
Target: RNA binding protein fox-1 homolog 2, RRM domain, GST-SBP tag (RBFOX2, Homo sapiens, UniProt O43251-10, residues 100-194)
Method: RNA Bind-n-Seq
Form: RNA
Matrix: in vitro
Tested at: 365 nM
Setting: natural RNA segment, single round, ends assumed
Relative to: no-protein control
Reading: higher = stronger binding
All sequences stand within: GGGAGUUCUACAGUCCGACGAUC … UGGAAUUCUCGGGUGCCAA
Target sequence (chain): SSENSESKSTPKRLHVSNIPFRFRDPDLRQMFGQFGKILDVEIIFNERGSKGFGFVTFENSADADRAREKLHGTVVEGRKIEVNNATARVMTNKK
Sequence	RBNS enrichment (R)
GAAAUCUCUUUAGAAGAAACUUUAUGAGUUUAUAAAUGAGAAAACCUUUCAGCAGUUAUGUAGCCUGUAUUCAAUGGUAGGAAAUUACAGGAAAAAAAGUUCUAAGCUUC	0.801
CUCGCAAAAUGAUGUGAAAGGACCAGUUUCUUGAAGUCCAGUGUUUCCACGGCUGGAUACCUGUGUGUCUCCAUAAAAGUCCUGUCACCAAGGACGUUAAAGGCAUUUUA	0.332
AGGAGACCCGCGUGUGGCACCGCCGCGACGGCAAGUGGCAGAACGUGCACUUCCACUGCUCGGGCGCGCCUGUGGCCCCGCUGCAGUGAAGAGCUGCGCCCUGGUUUCGC	1.77
UUUCCAGAAAUUUGUGGCCUUUUAGGCGGGAGUUAGGCGACCAAACCAGUGAGAGCCCCAAUCCCUGCAGUUUUGUGGCUUCAAGUGUGGGUGGACAGUCCUAAUGGGGA	0.433
UUUUUUUUUUUUUCUGGCCGAAGACAUAUACCCAAGAACAAGAGAUACCUUUAAGCCAGUGAAGGAUACUUGCGAUAGAAUCAUCCGCAACUCAGUGGCCAUUCUUCUGC	0.563
AGAAUCUCGACGGGUUGCUAUAAUGGUCUGCACCCCAAGACUUCCAUUACUUACCUAGUCAUUGUGGAACAUGACUAUGGAGAGCAUUGUAUAUUUCUAUCUGGUAGUAA	0.742
AAGCCCGAGUCAGGGCACUUGUUAUUUAAAUGUGCCAUUUCCCAGGUUGCCACCCUUCAUAGAGUUUAGGCAUGCAGUUUGCUUAGCCAGUGUAGGAAGCCUCAUGAGAA	0.44
CAUUUCUAACCUGUGCCACCUCUUGUUUCGUUCAUGCUGAGCCUGUAGUUUCAGUCAUGGACUUUUGUACUGUUGAGUGCAAAGGCAUGUUGGGAAAGGUGUUGGGGAGG	0.497

Single results of other studies
Substance	target	assay	test system	conditions	how to read	measurement	result
PhoQ, residues 284 288 289 292 302 303 TAVSDG	PhoP, residues 12 14 15 18 19 TPLRH (Escherichia coli, UniProt P23836)	Sort-seq, measured: YFP reporter	E. coli	PhoQ-PhoP variant library, added: 10 µM Mg2+	relative to: high Mg2+ state, higher = stronger signaling	fold induction	0.563
